# Measured values from different studies.
# Numbers after ± are the reported error.
# Cell line: MDA-MB-231
SMILES,assay,conditions,IC50
COC(=O)c1c(-c2ccc(Cl)cc2Cl)c2n(c1C(=O)OC)CCn1cccc1-2,"cell growth or viability, MTT",48 h,85.7 µM
O=C(/C=C/c1ccc(Cn2cc(Cn3cnc4ccc(Cl)cc4c3=O)nn2)cc1)NO,"cell growth or viability, MTT",48 h,4.31 µM
CC/C(=C(\c1ccccc1)c1ccc(OCCN(C)C(=O)CCCCOc2ccc3[nH]cc(CCNC(C)=O)c3c2)cc1)c1ccccc1,"cell survival, MTT","day 9, dosed days 2, 4, 7",11.6 µM
COc1ccc(N2CCN(CC(=O)Nc3ccc(C4=NN(C(C)=O)C(c5cc(OC)c(OC)c(OC)c5)C4)cc3)CC2)cc1 (centres unmarked),"cell growth or viability, MTT",,2.89 µM
COC(=O)[C@@H]1Cc2c([nH]c3ccccc23)[C@H](c2ccc(Cl)c(Cl)c2)N1,"cell growth or viability, ATP luminescence",,< 10 µM
O=c1[nH]nc(O)c2c(-c3cccc(Cl)c3)c3n(c12)CCn1cccc1-3,"cell growth or viability, MTT",48 h,17.9 µM
CNC(=O)c1cc(Oc2ccc(NC(=O)Nc3ccc(Cl)c(C(F)(F)F)c3)cc2)ccn1,"cytotoxicity, MTT",24 h,7.61 ± 0.4 µM
COc1cc2nc(N3CCCN(C)CC3)nc(NC3CCN(Cc4ccccc4)CC3)c2cc1OC,"in-cell western, measured: H3K9me2",48 h,0.5 ± 0.043 µM
CCCCCCCCCCC[C@H](C[C@@H]1OC(=O)[C@@H]1CCCCCC)OC(=O)CNC=O,"cell growth or viability, MTS",48 h,> 100 µM
COc1ccc(N2CCN(CC(=O)Nc3ccc(C4=NN(C(C)=O)C(c5ccccc5)C4)cc3)CC2)cc1 (centres unmarked),"cell growth or viability, MTT",,25.7 µM
O=C(/C=C/c1ccc(Cn2cc(Cn3cnc4ccccc4c3=O)nn2)cc1)NO,"cell growth or viability, MTT",48 h,7.19 µM
O=C(COc1ccccc1C1=Nn2c(nnc2-c2ccccc2)SC1)NCCCCNC(=O)COc1ccccc1C1=Nn2c(nnc2-c2ccccc2)SC1,"cell growth or viability, MTT",,12.7 µM
O=c1[nH]nc(O)c2c(-c3ccc(Cl)cc3)c3n(c12)CCn1cccc1-3,"cell growth or viability, MTT",48 h,53.3 µM
COCCOc1cc2ncnc(Nc3cccc(-c4cn(CCOCCOCCOCCNC(=S)Nc5ccc(S(N)(=O)=O)cc5)nn4)c3)c2cc1OCCOC,"cell proliferation, flow cytometry cell count","72 h, hypoxia 1% O2",30 µM
C[C@@H]1O[C@@H](OC(=O)/C=C/c2ccc(O)cc2)[C@H](O)[C@H](OC(=O)/C=C/c2ccc(O)c(O)c2)[C@H]1O (relative stereo),"cell growth or viability, MTT",,38.6 µM
CC(=O)N1N=C(c2ccc(NC(=O)CN3CCN(c4ccc(Cl)cc4)CC3)cc2)CC1c1ccc(Cl)cc1Cl (centres unmarked),"cell growth or viability, MTT",,64.7 µM
Cc1nnc2n1N=C(c1ccccc1OCC(=O)NCCNC(=O)COc1ccccc1C1=Nn3c(C)nnc3SC1)CS2,"cell viability, MTT",,0.41 µM
C=CCc1cc(OC)c(O)c(OC)c1,MTT,24 h,> 50 µM
O=C(NO)c1ccc(Cn2cc(Cn3cnc4cc(Br)ccc4c3=O)nn2)cc1,"cell growth or viability, MTT",48 h,4.38 µM
O=C(NO)c1ccc(NC(=O)[C@@H](NC(=O)c2ccc3ccccc3c2)c2ccccc2)cc1,"cell growth or viability, MTT",48 h,4.23 µM
CC1CC(C)CN(c2cc(Nc3ccccc3C(=O)O)c3c4c(onc24)-c2ccccc2C3=O)C1 (centres unmarked),cell migration,8 h,> 100 µM
COc1ccc(N2CCN(CC(=O)Nc3ccc(C(=O)C=Cc4ccc(Br)cc4)cc3)CC2)cc1,"cell growth or viability, MTT",,43.6 µM
Cc1ccc2c(=O)n(Cc3cn(Cc4ccc(C(=O)NO)cc4)nn3)cnc2c1,"cell growth or viability, MTT",48 h,7.05 µM
CN(C)c1cccc2c(S(=O)(=O)N[C@H](C(=O)Nc3ccc(C(=O)NO)cc3)c3ccccc3)cccc12,"cell growth or viability, MTT",48 h,4.46 µM
COc1ccc(N2CCN(CC(=O)Nc3ccc(C(=O)C=Cc4cc(OC)c(OC)c(OC)c4)cc3)CC2)cc1,"cell growth or viability, MTT",,15.5 µM
COC(=O)c1c(-c2cc(OC)c(OC)c(OC)c2)c2n(c1C(=O)OC)CCn1cccc1-2,"cell growth or viability, MTT",48 h,75.7 µM
Cc1nnc2n1N=C(c1ccccc1OCC(=O)NCCCNC(=O)COc1ccccc1C1=Nn3c(C)nnc3SC1)CS2,"cell growth or viability, MTT",,0.12 µM
O=C(NO)c1ccc(Cn2cc(Cn3cnc4cc(F)ccc4c3=O)nn2)cc1,"cell growth or viability, MTT",48 h,7.47 µM
COC(=O)c1c(-c2ccccc2O)c2n(c1C(=O)OC)CCn1cccc1-2,"cell growth or viability, MTT",48 h,28.2 µM
Cc1cc2ncc(-c3ccccc3OCC(=O)NCCCCNC(=O)COc3ccccc3-c3cnc4cc(C)c(C)cc4n3)nc2cc1C,"cell growth or viability, MTT",,28.1 µM
O=C(NO)c1ccc(NC(=O)[C@@H](NC(=O)c2cccc(Br)c2)c2ccccc2)cc1,"cell growth or viability, MTT",48 h,4.47 µM
COC(=O)c1c(-c2cccc(OC)c2)c2n(c1C(=O)OC)CCn1cccc1-2,"cell growth or viability, MTT",48 h,70.8 µM
CC(=O)OC[C@@H]1O[C@H](n2cc(Cn3ccc4nc(-c5ccc(Br)cc5)cc(=O)n43)nn2)[C@@H](OC(C)=O)[C@H](OC(C)=O)[C@@H]1OC(C)=O (stereo in doubt),"cell growth or viability, MTT",72 h,46 µM
Cc1ccc2ncn(Cc3cn(Cc4ccc(/C=C/C(=O)NO)cc4)nn3)c(=O)c2c1,"cell growth or viability, MTT",48 h,9.71 µM
CC(=O)OC[C@@H]1O[C@H](n2cc(Cn3ccc4nc(-c5ccc(C(F)(F)F)cc5)cc(=O)n43)nn2)[C@@H](OC(C)=O)[C@H](OC(C)=O)[C@@H]1OC(C)=O (stereo in doubt),"cell growth or viability, MTT",72 h,32.1 µM
O=c1[nH]nc(O)c2c(-c3ccc([N+](=O)[O-])cc3)c3n(c12)CCn1cccc1-3,"cell growth or viability, MTT",48 h,61.7 µM
O=c1c(-c2ccc(O)cc2)coc2cc(O)cc(O)c12,"cell growth or viability, trypan blue",72 h,51 µM
NS(=O)(=O)c1ccc(NC(=O)Nc2ccc(F)cc2)cc1,"cell proliferation, flow cytometry cell count","72 h, hypoxia 1% O2",23.4 µM
CCn1[c](=[Au-2]([Cl])([Cl])[Cl])n(CC)c2ccccc21,"cell growth or viability, crystal violet",96 h,6.7 µM
O=C(/C=C/c1ccc(Cn2cc(Cn3cnc4cc(Br)ccc4c3=O)nn2)cc1)NO,"cytotoxicity, MTT",48 h,10.2 ± 1.98 µM
CC(=O)N1N=C(c2ccc(NC(=O)CN3CCN(c4ccc(Cl)cc4)CC3)cc2)CC1c1ccco1 (centres unmarked),"cell growth or viability, MTT",,27.8 µM
O=c1[nH]nc(O)c2c(-c3cccc(Br)c3)c3n(c12)CCn1cccc1-3,"cell growth or viability, MTT",48 h,62 µM
COc1ccc(N2CCN(CC(=O)Nc3ccc(C4=NN(C(C)=O)C(c5ccco5)C4)cc3)CC2)cc1 (centres unmarked),"cell growth or viability, MTT",,5.97 µM
CCOC(=O)C(C(C)=O)=C1Sc2nc3ccc(S(=O)(=O)N4CCCC4)cc3nc2S1,"cell growth or viability, MTT",24 h,10.5 µM
O=c1c(-c2ccc(O)cc2)coc2cc(O)ccc12,"cell growth or viability, trypan blue",72 h,179 µM
COc1ccc(C2CC(c3ccc(NC(=O)CN4CCN(c5ccc(OC)cc5)CC4)cc3)=NN2C(C)=O)cc1 (centres unmarked),"cell growth or viability, MTT",,8.21 µM
O=C(COc1ccc(-c2cnc3ccccc3n2)cc1)NCCCNC(=O)COc1ccc(-c2cnc3ccccc3n2)cc1,"cell viability, MTT",,> 50 µM

# Repeated from above:
SMILES,assay,conditions,IC50
Cc1ccc2c(=O)n(Cc3cn(Cc4ccc(C(=O)NO)cc4)nn3)cnc2c1,"cell growth or viability, MTT",48 h,7.05 µM
CN(C)c1cccc2c(S(=O)(=O)N[C@H](C(=O)Nc3ccc(C(=O)NO)cc3)c3ccccc3)cccc12,"cell growth or viability, MTT",48 h,4.46 µM
COc1ccc(N2CCN(CC(=O)Nc3ccc(C(=O)C=Cc4cc(OC)c(OC)c(OC)c4)cc3)CC2)cc1,"cell growth or viability, MTT",,15.5 µM
COC(=O)c1c(-c2cc(OC)c(OC)c(OC)c2)c2n(c1C(=O)OC)CCn1cccc1-2,"cell growth or viability, MTT",48 h,75.7 µM
Cc1nnc2n1N=C(c1ccccc1OCC(=O)NCCCNC(=O)COc1ccccc1C1=Nn3c(C)nnc3SC1)CS2,"cell growth or viability, MTT",,0.12 µM
O=C(NO)c1ccc(Cn2cc(Cn3cnc4cc(F)ccc4c3=O)nn2)cc1,"cell growth or viability, MTT",48 h,7.47 µM
COC(=O)c1c(-c2ccccc2O)c2n(c1C(=O)OC)CCn1cccc1-2,"cell growth or viability, MTT",48 h,28.2 µM
Cc1cc2ncc(-c3ccccc3OCC(=O)NCCCCNC(=O)COc3ccccc3-c3cnc4cc(C)c(C)cc4n3)nc2cc1C,"cell growth or viability, MTT",,28.1 µM
